Published values gathered from unrelated publications.
Protocols differ between the studies behind these lines.
Route: oral

Compound | test | test system | setting | measurement | value
CCOc1c([C@H](C)n2nc(C)c3c(N)ncnc32)cc(Cl)c(F)c1[C@@H]1CNC(=O)C1 | item: ΔQTcF > 60 ms | previously treated B-cell malignancy | 20 mg once daily, baseline QTcF ≤450 ms | patients with high heart rate | 2.9%
COc1cc(Nc2ncc3c(n2)-c2ccc(Cl)cc2C(c2c(F)cccc2OC)=NC3)ccc1C(=O)O |  | cancer patients | dose not given, all grades any attribution, with: pembrolizumab | patients with acneiform rash | 13%
Cc1cc(NC2CCN(C(=O)OC3CCN(C(=O)/C=C/CN(C)C)C3)CC2)n2ncc(C(C)C)c2n1 (centres unmarked) | CTCAE v4.0, item: Nausea | patients with advanced solid tumours | dose not given, TIW, grade 3 or higher | patients with TEAE | 0%
Cc1cc(-c2nnc(N)nc2-c2ccc(F)cc2)cc(Cl)n1 | item: Nausea | other solid tumours, post-IO | 100 mg once daily, all grades | patients with treatment-related AE | 57.1%
C[C@@H](Nc1cc(F)cc(F)c1)c1cc(C(=O)N(C)C)cc2c(=O)cc(N3CCOCC3)oc12 | item: Pneumonia | advanced solid tumour patients | dose not given, dose expansion | patients discontinuing for AE | 0%
CNC(=O)c1cc(Oc2ccc(NC(=O)Nc3cc(C(C)(C)C)nn3-c3ccc4ncccc4c3)c(F)c2)ccn1 |  | patients | dose not given, cycles 1 and 2, High Cmax subgroup | patients with visual abnormalities | 28%
CNC(=O)c1ccc(-c2cnc3ncc(Cc4ccc5ncccc5c4)n3n2)cc1F | item: Pruritus, all grades | hepatocellular carcinoma patients | 600 mg twice daily, expansion cohort, any causality | patients with adverse event | 0%
O=C(Nc1nc2cccc(-c3ccc(CN4CCS(=O)(=O)CC4)cc3)n2n1)C1CC1 |  | rheumatoid arthritis patients | 100 mg twice daily, 4 weeks, regardless of relatedness | patients with metabolism disorders | 0%

Repeated from above:
Compound | test | test system | setting | measurement | value
CCOc1c([C@H](C)n2nc(C)c3c(N)ncnc32)cc(Cl)c(F)c1[C@@H]1CNC(=O)C1 | item: ΔQTcF > 60 ms | previously treated B-cell malignancy | 20 mg once daily, baseline QTcF ≤450 ms | patients with high heart rate | 2.9%
